Results pooled from the literature.
Every numbered part comes from another study and shows a few of its results, in no order.
Sequence of UniProt Q6ZWH5 (whole entry, looked up): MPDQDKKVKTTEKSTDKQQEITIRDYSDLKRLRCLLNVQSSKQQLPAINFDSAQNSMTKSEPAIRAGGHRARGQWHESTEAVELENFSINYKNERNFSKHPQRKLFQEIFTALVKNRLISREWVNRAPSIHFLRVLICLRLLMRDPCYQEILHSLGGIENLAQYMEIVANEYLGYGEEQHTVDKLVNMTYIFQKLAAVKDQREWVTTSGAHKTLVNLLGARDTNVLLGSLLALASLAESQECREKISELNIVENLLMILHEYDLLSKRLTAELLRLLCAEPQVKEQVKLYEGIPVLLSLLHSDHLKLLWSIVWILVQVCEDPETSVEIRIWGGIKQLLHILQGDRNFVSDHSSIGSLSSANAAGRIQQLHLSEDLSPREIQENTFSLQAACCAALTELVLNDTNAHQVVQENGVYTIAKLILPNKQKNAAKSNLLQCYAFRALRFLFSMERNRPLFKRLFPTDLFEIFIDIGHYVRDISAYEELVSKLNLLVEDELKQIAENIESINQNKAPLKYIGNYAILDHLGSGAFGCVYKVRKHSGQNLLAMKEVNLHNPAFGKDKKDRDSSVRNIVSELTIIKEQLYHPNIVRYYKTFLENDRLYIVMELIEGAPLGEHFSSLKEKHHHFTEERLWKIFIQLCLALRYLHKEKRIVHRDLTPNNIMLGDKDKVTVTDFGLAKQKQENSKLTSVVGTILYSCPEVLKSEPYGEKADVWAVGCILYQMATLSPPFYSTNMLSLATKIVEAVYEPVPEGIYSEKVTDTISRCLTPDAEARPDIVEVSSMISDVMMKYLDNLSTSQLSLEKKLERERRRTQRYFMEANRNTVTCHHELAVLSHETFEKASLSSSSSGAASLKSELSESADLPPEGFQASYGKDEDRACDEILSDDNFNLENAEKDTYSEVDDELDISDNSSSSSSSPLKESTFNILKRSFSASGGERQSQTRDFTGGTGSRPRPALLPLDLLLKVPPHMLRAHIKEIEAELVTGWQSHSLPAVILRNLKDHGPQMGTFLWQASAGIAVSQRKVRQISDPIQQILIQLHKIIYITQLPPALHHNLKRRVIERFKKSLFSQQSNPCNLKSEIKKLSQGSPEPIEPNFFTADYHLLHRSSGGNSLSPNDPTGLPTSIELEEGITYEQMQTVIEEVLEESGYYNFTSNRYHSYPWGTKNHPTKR
Sequence of UniProt Q12852 (whole entry, looked up): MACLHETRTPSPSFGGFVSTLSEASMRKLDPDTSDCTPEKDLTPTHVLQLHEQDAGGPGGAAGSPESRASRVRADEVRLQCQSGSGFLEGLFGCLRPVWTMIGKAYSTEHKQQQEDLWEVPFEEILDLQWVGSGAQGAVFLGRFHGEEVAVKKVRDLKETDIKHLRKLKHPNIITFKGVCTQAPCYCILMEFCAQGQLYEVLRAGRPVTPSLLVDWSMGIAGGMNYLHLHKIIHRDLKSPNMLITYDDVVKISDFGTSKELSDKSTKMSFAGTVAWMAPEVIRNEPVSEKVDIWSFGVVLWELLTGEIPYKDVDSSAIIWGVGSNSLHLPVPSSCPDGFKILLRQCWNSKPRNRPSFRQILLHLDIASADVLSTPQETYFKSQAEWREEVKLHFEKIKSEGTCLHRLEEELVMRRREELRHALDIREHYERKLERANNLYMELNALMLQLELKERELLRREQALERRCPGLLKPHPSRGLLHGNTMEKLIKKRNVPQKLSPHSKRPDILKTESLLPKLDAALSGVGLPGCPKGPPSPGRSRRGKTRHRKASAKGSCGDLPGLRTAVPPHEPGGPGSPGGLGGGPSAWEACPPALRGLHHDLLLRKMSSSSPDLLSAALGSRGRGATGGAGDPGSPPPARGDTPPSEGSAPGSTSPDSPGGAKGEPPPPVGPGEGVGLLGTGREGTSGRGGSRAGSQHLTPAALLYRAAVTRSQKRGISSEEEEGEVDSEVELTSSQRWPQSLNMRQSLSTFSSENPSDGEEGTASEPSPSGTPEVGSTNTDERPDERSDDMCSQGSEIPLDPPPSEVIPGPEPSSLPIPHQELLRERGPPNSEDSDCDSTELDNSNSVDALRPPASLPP
Sequence of UniProt P0C264 (whole entry, looked up): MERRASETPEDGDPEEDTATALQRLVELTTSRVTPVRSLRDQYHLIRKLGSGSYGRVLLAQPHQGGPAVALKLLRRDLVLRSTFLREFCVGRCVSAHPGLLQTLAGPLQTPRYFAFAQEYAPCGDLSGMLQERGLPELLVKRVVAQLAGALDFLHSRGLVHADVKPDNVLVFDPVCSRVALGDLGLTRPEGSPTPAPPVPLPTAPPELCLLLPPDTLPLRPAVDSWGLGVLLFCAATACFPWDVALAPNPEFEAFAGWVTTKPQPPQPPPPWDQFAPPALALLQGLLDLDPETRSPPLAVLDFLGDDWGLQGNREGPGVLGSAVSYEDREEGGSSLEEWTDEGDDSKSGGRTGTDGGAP
Sequence of UniProt Q07002 (whole entry, looked up): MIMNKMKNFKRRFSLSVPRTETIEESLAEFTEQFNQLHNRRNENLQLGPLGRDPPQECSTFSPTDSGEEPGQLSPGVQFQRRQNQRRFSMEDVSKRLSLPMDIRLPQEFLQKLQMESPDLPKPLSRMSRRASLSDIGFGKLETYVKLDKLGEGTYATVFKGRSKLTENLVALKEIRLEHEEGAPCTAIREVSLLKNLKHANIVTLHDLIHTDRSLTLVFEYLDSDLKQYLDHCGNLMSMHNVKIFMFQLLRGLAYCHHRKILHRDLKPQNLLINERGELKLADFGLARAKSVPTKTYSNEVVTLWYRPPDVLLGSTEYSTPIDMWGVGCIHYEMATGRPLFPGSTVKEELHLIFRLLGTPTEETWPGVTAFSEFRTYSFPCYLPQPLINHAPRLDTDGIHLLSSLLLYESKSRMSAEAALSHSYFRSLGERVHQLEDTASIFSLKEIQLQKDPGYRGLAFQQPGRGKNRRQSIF
Sequence of UniProt Q8IU85 (whole entry, looked up): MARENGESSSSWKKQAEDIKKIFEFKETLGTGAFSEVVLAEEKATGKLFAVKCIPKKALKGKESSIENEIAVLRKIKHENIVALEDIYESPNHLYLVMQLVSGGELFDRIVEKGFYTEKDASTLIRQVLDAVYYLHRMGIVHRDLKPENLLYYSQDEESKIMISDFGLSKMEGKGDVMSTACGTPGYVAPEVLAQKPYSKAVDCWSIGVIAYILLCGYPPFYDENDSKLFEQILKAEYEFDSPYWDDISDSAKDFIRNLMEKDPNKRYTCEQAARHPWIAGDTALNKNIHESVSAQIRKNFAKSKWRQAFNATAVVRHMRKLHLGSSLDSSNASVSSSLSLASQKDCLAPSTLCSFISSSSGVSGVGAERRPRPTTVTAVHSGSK

Block 1
Target: Insulin receptor (INSR, Homo sapiens, UniProt P06213)
Sequence of UniProt P06213 (whole entry, looked up): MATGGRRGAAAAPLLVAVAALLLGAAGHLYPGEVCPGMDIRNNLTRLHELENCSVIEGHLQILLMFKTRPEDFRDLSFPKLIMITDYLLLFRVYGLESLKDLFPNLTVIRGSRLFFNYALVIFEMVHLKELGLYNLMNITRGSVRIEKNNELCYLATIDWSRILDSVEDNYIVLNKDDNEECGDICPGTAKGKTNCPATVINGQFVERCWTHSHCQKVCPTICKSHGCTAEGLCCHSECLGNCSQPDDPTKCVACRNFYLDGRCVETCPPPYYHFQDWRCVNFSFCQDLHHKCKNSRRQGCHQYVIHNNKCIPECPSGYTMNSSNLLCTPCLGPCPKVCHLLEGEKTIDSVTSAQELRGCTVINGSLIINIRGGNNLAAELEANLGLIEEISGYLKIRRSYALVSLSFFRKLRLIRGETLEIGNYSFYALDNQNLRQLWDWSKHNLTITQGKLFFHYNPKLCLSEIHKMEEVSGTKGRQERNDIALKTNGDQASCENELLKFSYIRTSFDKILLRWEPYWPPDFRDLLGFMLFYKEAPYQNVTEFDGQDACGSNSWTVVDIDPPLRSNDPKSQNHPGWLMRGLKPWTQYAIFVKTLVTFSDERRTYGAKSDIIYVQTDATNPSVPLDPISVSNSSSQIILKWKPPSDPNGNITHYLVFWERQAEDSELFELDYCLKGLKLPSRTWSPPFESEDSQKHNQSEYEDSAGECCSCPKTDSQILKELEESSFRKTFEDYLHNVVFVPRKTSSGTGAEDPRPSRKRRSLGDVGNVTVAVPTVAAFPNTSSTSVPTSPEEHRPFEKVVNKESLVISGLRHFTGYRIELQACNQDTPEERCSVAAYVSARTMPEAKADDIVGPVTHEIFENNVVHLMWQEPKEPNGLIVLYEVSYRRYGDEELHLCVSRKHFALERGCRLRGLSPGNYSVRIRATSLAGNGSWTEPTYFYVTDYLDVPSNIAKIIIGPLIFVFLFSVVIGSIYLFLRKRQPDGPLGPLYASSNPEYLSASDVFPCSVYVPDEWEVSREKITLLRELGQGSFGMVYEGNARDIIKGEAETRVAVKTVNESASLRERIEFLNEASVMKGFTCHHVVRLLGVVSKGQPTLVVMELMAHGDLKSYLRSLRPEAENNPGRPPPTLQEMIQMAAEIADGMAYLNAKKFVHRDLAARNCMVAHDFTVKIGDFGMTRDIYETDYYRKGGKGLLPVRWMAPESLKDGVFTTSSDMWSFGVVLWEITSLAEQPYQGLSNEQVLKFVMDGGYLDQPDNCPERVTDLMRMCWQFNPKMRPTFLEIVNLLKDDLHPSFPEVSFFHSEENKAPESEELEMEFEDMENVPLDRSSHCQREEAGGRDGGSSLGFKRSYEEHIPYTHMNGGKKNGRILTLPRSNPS
Read-out: enzyme activity
Mode: inhibitor
Tested at: 0.5 µM
Relative to: control
Measurement: remaining activity
Cn1c2ccccc2c2c3c(c4c5ccccc5n(CCC#N)c4c21)CNC3=O: 89.3%
OCC(O)CCON=C1C(c2c(O)[nH]c3ccccc23)=Nc2ccccc21 (stereo not drawn): 44.9%
Cc1cccc(-c2[nH]c(C(C)(C)C)nc2-c2ccc3c(c2)OCO3)n1: 87.6%
CN(C)c1ccc(C=C2C(=O)Nc3ccccc32)cc1: 93.4%
COc1cc2ncnc(Nc3ccc(F)c(Cl)c3)c2cc1OCCCN1CCOCC1: 107%
O=S(=O)(c1cccc2cnccc12)N1CCCNCC1: 95%
Cc1nc(-c2ccccc2)c(-c2ccncc2)o1: 85.6%
O=C(O)c1ccc2c3c1cccc3c(=O)n1c3ccccc3nc21: 91.5%
Cc1ccc(Nc2nccc(N(C)c3ccc4c(C)n(C)nc4c3)n2)cc1S(N)(=O)=O: 107%
Nc1ccc2ncnc(NCCc3ccc(Oc4ccccc4)cc3)c2c1: 103%
C#Cc1cccc(Nc2ncnc3cc(OCCOC)c(OCCOC)cc23)c1: 102%
O=C1NC(=O)C(c2cn(CCCn3ccnc3)c3ccccc23)=C1Nc1ccccc1: 84.4%
O=C(Nc1cccc(Nc2cc(Nc3cccc(C(F)(F)F)c3)ncn2)c1)C1CC1: 103%
NCCNc1ncc(C(N)=O)c(Nc2cccc(C(F)(F)F)c2)n1: 80%
Cc1ccc(NC(=O)c2ccc(CN3CCN(C)CC3)cc2)cc1Nc1nc(-c2cccnc2)cs1: 99%

Block 2
Cell line: mouse MPNST tumor cells
Method: high-content nuclear imaging
Item: cell number
Tested at: 10 µM
Time: 12 h
Notes: mean of 2 replicates
Relative to: plate mean
Reading: higher = more cells
Measurement: nuclei count
COc1ccc(C(=O)C2CC2c2ccc(Cl)cc2)cc1 (stereo not drawn): 1.05 z-score
CC1C(=O)OC2C(O)C34C5CC(C(C)(C)C)C36C(OC(=O)C6O)OC4(C(=O)O5)C12O (stereo not drawn): 0.559 z-score
CCCc1nc(C(C)(C)O)c(C(=O)OCc2oc(=O)oc2C)n1Cc1ccc(-c2ccccc2-c2nnn[nH]2)cc1: 0.522 z-score
CN1C(C(=O)Nc2ccccn2)=C(O)c2sccc2S1(=O)=O: 0.224 z-score
C[C@H](NC(=O)CNC(=O)c1cccc(Cl)c1)c1ccccc1: 0.953 z-score
CO/N=C(\C(=O)N[C@@H]1C(=O)N2C(C(=O)O)=C(COC(C)=O)CS[C@H]12)c1csc(N)n1: 0.448 z-score
Cc1c(O)cccc1C(=O)N[C@@H](CSc1ccccc1)[C@H](O)CN1C[C@H]2CCCC[C@H]2C[C@H]1C(=O)NC(C)(C)C: 1.92 z-score

Block 3
Structure (SMILES): Cc1noc([C@H]2C[C@@H](c3ccc(C(F)(F)F)cc3)CN(C(=O)N3CCS(=O)(=O)C3)C2)n1
Read-out: cell-free assay
Method: competition with immobilised ligand
Tested at: 1 µM
Measurement: remaining binding
MAP3K12 (Homo sapiens, UniProt Q12852): 92%
CAMK1G (Homo sapiens, UniProt Q96NX5): 100%
SBK3 (Homo sapiens, UniProt P0C264): 84%
NEK10 (Homo sapiens, UniProt Q6ZWH5): 84%
CAMK2G (Homo sapiens, UniProt Q13555): 100%
CAMK1D (Homo sapiens, UniProt Q8IU85): 100%
CDK18 (Homo sapiens, UniProt Q07002): 97%
KIT (Homo sapiens, UniProt P10721, L576P): 100%

Block 4
Host: human
Medium: microsomes or S9
Tested at: 2 µM
Time: 0.5 h
Measurement: remaining compound
COCCOCC(=O)NCC1CCCCC(=O)N1 (stereo not drawn): 92.3%
CC(=O)c1ccc(/C=C/c2ccc(C(C)(C)C)cc2)n1C: > 100%
CCC1CC(=O)c2c(Cl)cccc2N1S(=O)(=O)c1ccc2ccccc2c1 (stereo not drawn): 2.11%
O=C(Nc1ccc(Oc2cccnc2)nc1)c1c[nH]c2ccccc12: 83.9%
Cn1c(/C=C2\SC(=O)NC2=O)cc2c1-c1ccccc1OC2: 21.3%
COCCN(Cc1ccn(C)c(=O)c1)Cc1cccs1: 0.0748%

A few entries again (block 3):
SBK3 (Homo sapiens, UniProt P0C264): 84%
NEK10 (Homo sapiens, UniProt Q6ZWH5): 84%
CAMK2G (Homo sapiens, UniProt Q13555): 100%
CAMK1D (Homo sapiens, UniProt Q8IU85): 100%
